# Measured values pooled from the literature.
# Compare with care: the assays were run in different laboratories. ± marks the error that the study gave.
# B1: ADRM1 285-407 (Homo sapiens, UniProt Q16186); chain GSWTQVDLASVLTPEIMAPILANADVQERLLPYLPSGESLPQTADEIQNTLTSPQFQQALGMFSAALASGQLGPLMCQFGLPAEAVEAANKGDVEAFAKAMQNNAKPEQKEGDTKDKKDEEEDMSLD
# B2: UGT1A9 (Homo sapiens, UniProt O60656); chain GKLLVVPMDGSHWFTMRSVVEKLILRGHEVVVVMPEVSWQLGRSLNCTVKTYSTSYTLEDLDREFKAFAHAQWKAQVRSIYSLLMGSYNDIFDLFFSNCRSLFKDKKLVEYLKESSFDAVFLDPFDNCGLIVAKYFSLPSVVFARGILCHYLEEGAQCPAPLSYVPRILLGFSDAMTFKERVRNHIMHLEEHLLCHRFFKNALEIASEILQTPVTEYDLYSHTSIWLLRTDFVLDYPKPVMPNMIFIGGINCHQGKPLPMEFEAYINASGEHGIVVFSLGSMVSEIPEKKAMAIADALGKIPQTVLWRYTGTRPSNLANNTILVKWLPQNDLLGHPMTRAFITHAGSHGVYESICNGVPMVMMPLFGDQMDNAKRMETKGAGVTLNVLEMTSEDLENALKAVINDKSYKENIMRLSSLHKDRPVEPLDLAVFWVEFVMRHKGAPHLRPAAHDLTWYQYHSLDVIGFLLAVVLTVAFITFKCCAYGYRKCLGKKGRVKKAHKSKTH
# B3: sevA 1-111 (Dictyostelium discoideum, UniProt P10733); chain MIKNRKLDITSTNVAGIGTDLDKKCRLDAASTEAQWKGVGQAPGLKIWRIENFKVVPVPESSYGKFYDGDSYIILHTFKEGNSLKHDIHFFLGTFTTQDEAGTAAYKTVEL
Molecule,target or system,test,system,conditions,scale,endpoint,value
"ARTKYTARKS (Histone H3.1 2-11 Q5Y (Homo sapiens, UniProt P68431); sequence looked up)","KDM5A 287-347 (Homo sapiens, UniProt P29375)","competition with labeled peptide, fluorescence polarisation",peptide,together with: H3 peptide,,Ki,650 nM
ACTN1 fragment (Homo sapiens),"TNFRSF10A (Homo sapiens, UniProt O00220)",two-hybrid,,,higher = stronger interaction,β-galactosidase activity,0.01 ± 0.01 Miller units
GOLGA2 GST fusion (sequence not shown),"KPNA2 ΔIBB, NLS-binding domain del IBB",ITC,,"pH 7.4, 20 °C, NaCl 100 mM",,molecule per partner,1
"PTPRZ1 Fc fusion extracellular C, F, S domains","Nrcam (Mus musculus, UniProt Q810U4)",neurite outgrowth,cerebellar cells,together with: anti-Nr-CAM Fab' 100 µg/mL,"relative to: control without Fab', higher = more outgrowth",neurite outgrowth,50%
"TMC1 (Homo sapiens, UniProt Q8TDI8)","KCNQ1 (Homo sapiens, UniProt P51787)","surface biotinylation, western blot",CHO,in cells,higher = more surface TMC1,surface expression,> 10 fold
Itgam/Itgb2 Mac-1 (Mus musculus),LL-37 (Homo sapiens),phagocytosis of latex beads,IC-21 macrophages,,"relative to: untreated beads, higher = more phagocytosis",phagocytosis,3.5 fold
B1 (ADRM1 285-407),UCHL5 M148A/F149A (Homo sapiens),steady-state kinetics,,,,kcat/Km,220000 M⁻¹ s⁻¹
"thyrotropin-releasing hormone, pyroGlu, C-terminal amide (Gallus gallus)","protein (Gallus gallus, UniProt A0A4P9IVJ2)","MAPK/ERK signaling, SRE luciferase reporter, agonist",HEK 293,,,EC50,2.91 nM
"FGF2 (Homo sapiens, UniProt P09038)","FGFR3 isoform IIIc (unknown, UniProt Q61851)","cell proliferation, MTT",BaF3-FGFR3c,"20 nM, 48 h, together with: heparosan 4.9 µg/mL","relative to: FGF 1 with heparin, higher = more proliferation",cell proliferation,8%
YARRRKRRSLAINLTN (TTLL13P D-site peptide (Homo sapiens)),"MAPK8, pT183, pY185 (Homo sapiens, UniProt P45983)","kinase activity, inhibitor, competitive kinase inhibition assay",peptide,together with: ATP 1 mM,,IC50,1800 nM
B2 (UGT1A9),COc1ccccc1-c1cc(=O)c2ccc(O)cc2o1,steady-state kinetics,,"pH 7.4, 37 °C",,Km,2.21 µM
"Lmod2 (Mus musculus, UniProt Q3UHZ5)","ACTA1 G-actin, pyrene label (UniProt P68135)","pyrene-actin polymerization nucleation, activator",,"5 nM, together with: G-actin 3.0 µM, pCa",higher = shorter lag,lag time reduction,2.5 fold
B3 (sevA 1-111),"actin G-actin, pyrene label (Oryctolagus cuniculus, UniProt P68135)","actin polymerization, inhibitor",,"50 nM, 14 h, capping, together with: EGTA","relative to: control, higher = more F-actin",F-actin at steady state,97.5%

# Repeated from above:
Molecule,target or system,test,system,conditions,scale,endpoint,value
YARRRKRRSLAINLTN (TTLL13P D-site peptide (Homo sapiens)),"MAPK8, pT183, pY185 (Homo sapiens, UniProt P45983)","kinase activity, inhibitor, competitive kinase inhibition assay",peptide,together with: ATP 1 mM,,IC50,1800 nM
